Measured values of several laboratories.
Each line is one published result; not all experiments were run side by side. “And” joins repeats or separate records; there may be more than shown. ± gives the spread as reported.
BCHE: Cholinesterase (BCHE, Homo sapiens, UniProt P06276)
UniProt P06276, sequence (whole entry, looked up): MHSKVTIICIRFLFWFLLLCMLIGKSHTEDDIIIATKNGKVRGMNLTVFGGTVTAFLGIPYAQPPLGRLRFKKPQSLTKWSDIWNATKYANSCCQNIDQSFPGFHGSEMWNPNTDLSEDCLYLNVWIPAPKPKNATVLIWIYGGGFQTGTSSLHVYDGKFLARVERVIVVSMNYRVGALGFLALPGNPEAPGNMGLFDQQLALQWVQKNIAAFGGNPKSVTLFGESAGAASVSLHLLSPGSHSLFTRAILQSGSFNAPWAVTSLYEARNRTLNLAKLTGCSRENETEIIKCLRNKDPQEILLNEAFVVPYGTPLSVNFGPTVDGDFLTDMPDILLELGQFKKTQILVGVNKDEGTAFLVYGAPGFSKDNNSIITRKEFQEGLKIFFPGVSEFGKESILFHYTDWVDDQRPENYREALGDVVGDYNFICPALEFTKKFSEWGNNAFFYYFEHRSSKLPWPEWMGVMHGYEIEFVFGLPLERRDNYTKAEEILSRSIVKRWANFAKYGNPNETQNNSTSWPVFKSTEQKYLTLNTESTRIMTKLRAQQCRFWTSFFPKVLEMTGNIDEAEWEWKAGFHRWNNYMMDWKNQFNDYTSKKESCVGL

CN(C)c1ccc(O)c2c1C[C@H]1C[C@H]3[C@H](N(C)C)C(O)=C(C(N)=O)C(=O)[C@@]3(O)C(O)=C1C2=O — IC50 (Plasmodium falciparum; W2): 794 nM
c1ccc(C(NCCNC(c2ccccc2)c2ccccc2)c2ccccc2)cc1 — inhibition (5-HT4 receptor, guinea pig; binding; 10 µM, Eurofins selectivity panel): 43%
CC[C@H](C)[C@@H]1NC(=O)[C@@H]2CCCN2C(=O)[C@H](CC(C)C)NC(=O)[C@H](CC(C)C)NC(=O)CNC(=O)[C@@H](NC(=O)[C@@H](NC(=O)[C@H](CC(=O)O)NC(=O)CNC(=O)[C@@H](NC(=O)[C@H](C)NC(=O)CNC(=O)[C@H](CCCCN)NC(=O)[C@H](CC(C)C)NC(=O)[C@H](CC(C)C)NC(=O)[C@H](CCCCN)NC(=O)CNC(=O)[C@@H](NC(=O)[C@@H](N)CC(C)C)C(C)C)C(C)C)C(C)C)CSSC[C@@H](C(=O)O)NC1=O — log2 fold change (RNA-seq, measured: Themis mRNA; mouse traumatic brain injury, frontal cortex and hippocampus; dose not given; baseline: TBI plus compound vs TBI): -3.76
COc1cc(CCC[P+](c2ccccc2)(c2ccccc2)c2ccccc2)c(OC)c2c1OCO2.[I-] — GI50 (SNB-75; SRB): -5.92 log M
C#CCN(C)[C@H](C)Cc1ccccc1 — corridor crossing time (footprint test; MPTP-induced Parkinson's disease mouse model; 10 mg/kg, trial 3): 8.69 s and 3.5 s and 5.04 s and 3.25 s and 6.09 s and 4.89 s and 4.45 s
Nc1c2c(nc3c1CCC3)CCCC2 — IC50 (BCHE; inhibitor): 250 ± 50 nM
Cc1ccccc1NC(=O)Nc1ccc(CC(=O)N[C@@H](CCCCNC(=O)/C=C/c2cccnc2)C(=O)N[C@@H](CCCC(=O)O)C(=O)NC2(C(=O)NCCOCCOCCOCCOCC(=O)N[C@@H](CCCCNC(=S)Nc3ccc(CCCN(CCN4CCN(CC(=O)O)CCN(CC(=O)O)CC4)CC(=O)O)cc3)C(N)=O)CCCCC2)cc1 [gallium-68 labelled] — log D (shake flask; octanol/PBS; pH 7.4): -2.31 ± 0.04
COc1c(CCC[P+](c2ccccc2)(c2ccccc2)c2ccccc2)cc2c(c1OC)OCO2.[I-] — GI50 (A498; SRB): -7.58 log M
COc1c(C)c2c(c(O)c1C/C=C(\C)CCC(=O)O)C(=O)OC2 — IC50 (muscle cancer cell lines; cell proliferation; average over lines): 1550 nM
CC(C)(C)[C@]1(O)CCN2C[C@H]3c4ccccc4CCc4cccc(c43)[C@@H]2C1 — IC50 (Plasmodium falciparum; HB3): 5010 nM
Nc1ncnc2c1ncn2[C@@H]1O[C@@H]2COP(=O)(O)O[C@H]3[C@@H](O)[C@H](n4cnc5c(=O)[nH]cnc54)O[C@@H]3COP(=O)(O)O[C@H]2[C@H]1O — fold enrichment (HFF-1; RNA sequencing, measured: Reactome Butyrophilin family interactions; upregulated pathways; baseline: mock): 19
COc1ccccc1N1CCN(CCN(C(=O)C2CCCCC2)c2ccccn2)CC1 — IC50 (Plasmodium falciparum; W2): 7940 nM
Nc1ncc(-c2nc(N3CCOCC3)nc(N3CCOCC3)n2)c(C(F)F)n1 — GI50 (MeWo; 72 h): 240 nM
Nc1ccn(C[C@@H](CO)OCP(=O)(O)O)c(=O)n1 — infection (Fowlpox virus; viral infection; CEF; 50 µM; baseline: untreated): 80% and 70% and 57.8%
COC(=O)[C@H]1[C@H]2C[C@@H]3c4[nH]c5cc(OC)ccc5c4CCN3C[C@H]2C[C@@H](OC(=O)c2cc(OC)c(OC)c(OC)c2)[C@@H]1OC — IC50 (Plasmodium falciparum; W2): 794 nM
COc1cc(O)ccc1OCCNCC(O)COc1cccc2[nH]c3ccccc3c12 (stereo not shown) — IC50 (BCHE; enzyme activity, inhibitor; Triton): 4080 ± 2670 nM

Repeated from above:
CC(C)(C)[C@]1(O)CCN2C[C@H]3c4ccccc4CCc4cccc(c43)[C@@H]2C1 — IC50 (Plasmodium falciparum; HB3): 5010 nM
Nc1ncnc2c1ncn2[C@@H]1O[C@@H]2COP(=O)(O)O[C@H]3[C@@H](O)[C@H](n4cnc5c(=O)[nH]cnc54)O[C@@H]3COP(=O)(O)O[C@H]2[C@H]1O — fold enrichment (HFF-1; RNA sequencing, measured: Reactome Butyrophilin family interactions; upregulated pathways; baseline: mock): 19
COc1ccccc1N1CCN(CCN(C(=O)C2CCCCC2)c2ccccn2)CC1 — IC50 (Plasmodium falciparum; W2): 7940 nM
